Results of several laboratories.
Compare with care: the assays were run in different laboratories. Values joined by “and” are separate records of one study, mostly repeats; a detail may differ. ± marks the error that the study gave.
WD repeat-containing protein 91 WD40 domain, residues 392–747: WD repeat-containing protein 91, WD40 domain, residues 392–747 (Homo sapiens, UniProt A4D1P6)
Chain of UniProt A4D1P6 (whole entry, looked up): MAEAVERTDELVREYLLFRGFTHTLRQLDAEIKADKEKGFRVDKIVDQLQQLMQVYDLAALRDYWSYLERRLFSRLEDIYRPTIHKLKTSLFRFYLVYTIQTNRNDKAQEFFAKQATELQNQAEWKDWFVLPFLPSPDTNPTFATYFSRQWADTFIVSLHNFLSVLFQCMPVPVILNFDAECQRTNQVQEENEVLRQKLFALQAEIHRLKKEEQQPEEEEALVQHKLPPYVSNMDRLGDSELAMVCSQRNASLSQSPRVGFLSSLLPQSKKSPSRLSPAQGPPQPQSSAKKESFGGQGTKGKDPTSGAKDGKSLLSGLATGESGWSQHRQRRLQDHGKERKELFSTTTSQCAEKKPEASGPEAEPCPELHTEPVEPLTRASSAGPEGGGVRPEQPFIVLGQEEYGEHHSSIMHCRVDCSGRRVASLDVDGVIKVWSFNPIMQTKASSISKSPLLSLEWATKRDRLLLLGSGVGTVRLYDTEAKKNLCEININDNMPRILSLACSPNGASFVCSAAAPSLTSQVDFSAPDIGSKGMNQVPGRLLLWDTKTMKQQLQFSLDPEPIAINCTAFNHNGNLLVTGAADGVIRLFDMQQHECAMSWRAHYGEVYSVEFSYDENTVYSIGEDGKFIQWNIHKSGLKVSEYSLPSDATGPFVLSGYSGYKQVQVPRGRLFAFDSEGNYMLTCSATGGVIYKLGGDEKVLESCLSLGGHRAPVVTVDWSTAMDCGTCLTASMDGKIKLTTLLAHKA
Genome polyprotein NS3 helicase domain: Genome polyprotein, NS3 helicase domain (Hepatitis C virus genotype 1b, UniProt Q9WMX2)
ESR1: Estrogen receptor (ESR1, Homo sapiens, UniProt P03372)
Chain of UniProt P03372 (whole entry, looked up): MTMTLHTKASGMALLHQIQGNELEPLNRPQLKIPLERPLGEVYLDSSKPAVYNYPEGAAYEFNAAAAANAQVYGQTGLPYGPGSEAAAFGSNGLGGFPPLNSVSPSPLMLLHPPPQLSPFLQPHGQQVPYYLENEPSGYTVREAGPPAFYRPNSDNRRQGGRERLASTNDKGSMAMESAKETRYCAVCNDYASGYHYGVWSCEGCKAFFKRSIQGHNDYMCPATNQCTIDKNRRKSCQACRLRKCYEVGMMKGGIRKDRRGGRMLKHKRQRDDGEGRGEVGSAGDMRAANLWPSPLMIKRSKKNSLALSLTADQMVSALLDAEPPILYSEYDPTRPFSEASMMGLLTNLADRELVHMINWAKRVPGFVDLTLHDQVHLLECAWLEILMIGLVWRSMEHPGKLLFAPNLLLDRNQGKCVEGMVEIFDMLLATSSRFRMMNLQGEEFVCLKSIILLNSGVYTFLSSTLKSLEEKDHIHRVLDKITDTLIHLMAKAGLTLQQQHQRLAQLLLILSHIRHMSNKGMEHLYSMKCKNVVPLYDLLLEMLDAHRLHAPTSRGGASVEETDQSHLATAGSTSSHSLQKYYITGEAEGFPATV
WD repeat-containing protein 91: WD repeat-containing protein 91 (Homo sapiens, UniProt A4D1P6)
NAA80: N-alpha-acetyltransferase 80 (NAA80, Homo sapiens, UniProt Q93015)
Chain of UniProt P51575 (whole entry, unmodified, looked up): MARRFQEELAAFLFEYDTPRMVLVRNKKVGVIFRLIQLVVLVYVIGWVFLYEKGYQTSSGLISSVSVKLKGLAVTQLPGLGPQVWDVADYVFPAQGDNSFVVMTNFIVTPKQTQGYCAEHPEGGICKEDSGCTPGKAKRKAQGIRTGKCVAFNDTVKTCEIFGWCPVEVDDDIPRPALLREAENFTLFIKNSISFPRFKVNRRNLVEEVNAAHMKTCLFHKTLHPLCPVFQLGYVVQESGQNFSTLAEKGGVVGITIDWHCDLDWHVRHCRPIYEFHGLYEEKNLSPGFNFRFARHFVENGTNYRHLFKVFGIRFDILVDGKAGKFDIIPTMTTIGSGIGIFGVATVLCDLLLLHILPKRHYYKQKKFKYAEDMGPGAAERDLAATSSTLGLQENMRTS
Chain of UniProt Q16774 (whole entry, unmodified, looked up): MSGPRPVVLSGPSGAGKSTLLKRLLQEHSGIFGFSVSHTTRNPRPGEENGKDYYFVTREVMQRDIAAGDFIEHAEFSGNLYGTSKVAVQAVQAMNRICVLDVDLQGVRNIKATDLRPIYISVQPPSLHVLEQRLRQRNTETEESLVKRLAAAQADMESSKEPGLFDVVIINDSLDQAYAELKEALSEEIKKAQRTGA
Chain of UniProt O75477 (whole entry, looked up): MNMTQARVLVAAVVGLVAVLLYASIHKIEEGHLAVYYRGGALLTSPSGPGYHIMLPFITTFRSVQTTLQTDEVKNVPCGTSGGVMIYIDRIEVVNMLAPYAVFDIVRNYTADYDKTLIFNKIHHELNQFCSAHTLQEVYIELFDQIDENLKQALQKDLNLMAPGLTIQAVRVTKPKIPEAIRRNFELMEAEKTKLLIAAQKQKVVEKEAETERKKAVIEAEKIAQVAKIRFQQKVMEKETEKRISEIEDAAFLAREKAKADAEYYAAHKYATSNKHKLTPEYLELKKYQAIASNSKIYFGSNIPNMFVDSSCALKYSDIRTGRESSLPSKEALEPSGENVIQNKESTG
Chain of UniProt P19801 (whole entry, looked up): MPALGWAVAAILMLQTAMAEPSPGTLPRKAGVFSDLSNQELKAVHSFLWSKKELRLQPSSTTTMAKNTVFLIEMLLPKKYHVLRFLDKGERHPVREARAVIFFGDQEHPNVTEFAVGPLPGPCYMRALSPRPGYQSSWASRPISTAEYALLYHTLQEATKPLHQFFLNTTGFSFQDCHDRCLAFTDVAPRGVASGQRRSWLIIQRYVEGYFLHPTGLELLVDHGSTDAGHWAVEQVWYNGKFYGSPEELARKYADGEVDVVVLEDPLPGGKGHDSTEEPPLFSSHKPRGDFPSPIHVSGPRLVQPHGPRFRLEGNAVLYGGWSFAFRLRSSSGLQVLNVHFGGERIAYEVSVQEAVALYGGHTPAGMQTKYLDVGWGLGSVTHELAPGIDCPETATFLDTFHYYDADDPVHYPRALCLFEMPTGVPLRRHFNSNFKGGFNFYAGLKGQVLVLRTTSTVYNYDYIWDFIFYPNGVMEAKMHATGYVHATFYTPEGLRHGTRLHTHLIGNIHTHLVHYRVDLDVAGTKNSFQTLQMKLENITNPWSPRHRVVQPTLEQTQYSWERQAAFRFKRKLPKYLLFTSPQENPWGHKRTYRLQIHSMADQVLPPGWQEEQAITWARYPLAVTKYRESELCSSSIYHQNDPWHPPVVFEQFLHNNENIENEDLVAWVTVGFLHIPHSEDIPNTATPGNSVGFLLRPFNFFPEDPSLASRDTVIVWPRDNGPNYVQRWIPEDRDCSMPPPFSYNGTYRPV
Chain of UniProt Q93015 (whole entry, looked up): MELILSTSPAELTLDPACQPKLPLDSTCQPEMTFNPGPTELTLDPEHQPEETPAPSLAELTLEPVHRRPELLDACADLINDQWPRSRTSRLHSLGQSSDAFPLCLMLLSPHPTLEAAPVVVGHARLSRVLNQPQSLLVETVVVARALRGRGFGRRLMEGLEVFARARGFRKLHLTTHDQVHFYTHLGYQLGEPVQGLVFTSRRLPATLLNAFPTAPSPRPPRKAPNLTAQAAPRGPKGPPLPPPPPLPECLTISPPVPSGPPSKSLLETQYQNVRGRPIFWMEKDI
Chain of UniProt P00441 (whole entry, unmodified, looked up): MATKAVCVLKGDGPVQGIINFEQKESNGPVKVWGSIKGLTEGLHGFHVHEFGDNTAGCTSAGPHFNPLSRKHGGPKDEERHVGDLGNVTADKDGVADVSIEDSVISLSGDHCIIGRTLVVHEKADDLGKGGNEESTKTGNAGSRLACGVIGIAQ
Chain of UniProt P42262 (whole entry, looked up): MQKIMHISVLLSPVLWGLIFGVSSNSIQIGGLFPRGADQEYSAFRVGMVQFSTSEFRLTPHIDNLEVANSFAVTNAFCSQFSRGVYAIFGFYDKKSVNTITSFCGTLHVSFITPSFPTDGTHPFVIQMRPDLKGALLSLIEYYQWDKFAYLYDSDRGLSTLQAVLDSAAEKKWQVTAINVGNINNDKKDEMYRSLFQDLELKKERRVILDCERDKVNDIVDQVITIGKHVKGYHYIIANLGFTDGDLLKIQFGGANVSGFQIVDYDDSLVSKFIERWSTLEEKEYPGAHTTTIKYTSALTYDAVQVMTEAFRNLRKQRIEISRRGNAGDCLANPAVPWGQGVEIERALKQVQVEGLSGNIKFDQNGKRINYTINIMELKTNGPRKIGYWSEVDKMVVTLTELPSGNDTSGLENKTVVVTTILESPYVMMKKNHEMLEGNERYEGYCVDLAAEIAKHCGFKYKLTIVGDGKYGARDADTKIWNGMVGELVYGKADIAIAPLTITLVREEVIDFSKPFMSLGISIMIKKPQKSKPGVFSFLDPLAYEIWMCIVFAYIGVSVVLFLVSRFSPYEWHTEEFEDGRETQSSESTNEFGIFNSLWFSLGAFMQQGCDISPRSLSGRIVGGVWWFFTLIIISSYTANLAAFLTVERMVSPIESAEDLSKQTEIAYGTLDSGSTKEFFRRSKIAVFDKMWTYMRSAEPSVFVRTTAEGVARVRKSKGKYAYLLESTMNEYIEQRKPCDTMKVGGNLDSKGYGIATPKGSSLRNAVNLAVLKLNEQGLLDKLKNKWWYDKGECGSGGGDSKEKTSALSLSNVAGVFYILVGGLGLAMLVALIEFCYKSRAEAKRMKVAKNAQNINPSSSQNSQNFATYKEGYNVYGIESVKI
Chain of UniProt Q96PF2 (whole entry, looked up): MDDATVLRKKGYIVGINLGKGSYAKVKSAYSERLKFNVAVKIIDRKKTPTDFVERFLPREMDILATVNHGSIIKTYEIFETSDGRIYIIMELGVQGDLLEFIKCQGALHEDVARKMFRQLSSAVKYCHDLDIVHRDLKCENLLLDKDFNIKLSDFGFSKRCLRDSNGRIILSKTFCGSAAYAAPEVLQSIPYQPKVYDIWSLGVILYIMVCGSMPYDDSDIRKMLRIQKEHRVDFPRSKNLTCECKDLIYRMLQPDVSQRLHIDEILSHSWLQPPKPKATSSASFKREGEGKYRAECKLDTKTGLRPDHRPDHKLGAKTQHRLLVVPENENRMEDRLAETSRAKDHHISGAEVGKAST

`CC(C)[C@H](NC(=O)c1cc(-c2cnn3cc(-c4ccc(OCCN5CCCCC5)cc4)cnc23)cs1)C(F)(F)F` has a relative inhibition of 0.0114 (TSSK2 (Homo sapiens, UniProt Q96PF2); radiometric kinase; 15 nM; baseline: TSSK2 over ULK1).
The ΔΔG of `CC[C@H](C)[C@H](NC(=O)[C@H](C)NC(=O)[C@H](CCSC)NC(=O)[C@H](C)NC(=O)[C@H](C)NC(=O)[C@H](Cc1ccc(O)cc1)NC(=O)[C@@H](NC(=O)[C@H](CCCCN)NC(=O)CNC(=O)[C@@H](NC(=O)[C@@H](NC(=O)[C@H](CCSC)NC(=O)[C@H](Cc1c[nH]cn1)NC(=O)CN)[C@@H](C)O)C(C)C)[C@@H](C)CC)C(=O)N[C@@H](CCSC)C(=O)N[C@@H](CCC(=O)O)C(=O)N[C@@H](Cc1ccc(O)cc1)C(=O)N[C@@H](Cc1ccc(O)cc1)C(=O)N[C@@H](CCCNC(=N)N)C(=O)N[C@@H](CCC(N)=O)C(=O)N[C@@H](CO)C(=O)N[C@@H](CCCCN)C(=O)N[C@@H](C)C(=O)N[C@@H](CCCCN)C(=O)N[C@@H](CCCCN)C(=O)N[C@@H](CC(C)C)C(=O)N[C@@H](CCC(N)=O)C(=O)N[C@@H](C)C(=O)N[C@@H](CCSC)C(=O)N[C@@H](CCCNC(=N)N)C(=O)O` is reported as -1.02 (Calmodulin-1, Ca2+-bound N-lobe (CALM1, Homo sapiens, UniProt P0DP23); binding, isothermal titration calorimetry; N-lobe, CaV2.1 IQ domain, unit not given, together with: Ca2+; baseline: wild-type IQ domain).
With `N#Cc1cccc2c1CC[C@H]2NC(=O)c1ccc(Nc2ncnc3ccccc23)cc1` the binding was 94% and 75% (WD repeat-containing protein 91 WD40 domain, residues 392–747; SPR; 45 µM).
`CCN1CCN(c2cc(N3CCN(CC)CC3)nc(NCCNc3ccnc4cc(Cl)ccc34)n2)CC1` gave an activation of 1.04 ± 0.01 fold (Nuclear receptor subfamily 4 group A member 3, ligand-binding domain (Homo sapiens, UniProt Q92570); reporter gene, Gal4 hybrid reporter; 1 µM; baseline: vehicle).
The selectivity ratio of `Cc1cc(-n2c(-c3ccccc3Cl)nc3c(N4CCC(NS(=O)(=O)c5ccc(F)c(F)c5)CC4)ncnc32)no1` is reported as greater than 20 (CNR1 (Homo sapiens, UniProt P21554); binding, [3H]CP55940 displacement; baseline: Ki CB2 over Ki CB1).
`COc1ccc(Cl)cc1C(=O)NCCc1ccc(S(=O)(=O)NC(=O)NC2CCCCC2)cc1` gave an inhibition of 1% (Genome polyprotein NS3 helicase domain; DNA binding, inhibitor; hepatitis C virus; 100 µM, together with: Cy5-dT15 DNA).
For `CCN1CCCC1CNC(=O)c1cc(S(N)(=O)=O)ccc1OC` (centres unmarked), the maximal inhibition was 100 ± 0.1% (DRD3 (Homo sapiens, UniProt P35462); ERK1/2 phosphorylation, antagonist, AlphaScreen SureFire).
With `COc1cc2c(=O)c(-c3ccc(O)cc3)coc2cc1O` the selectivity ratio was 17.3 (ESR1; array formation; PRL-HeLa; baseline: EC50 ERβ over EC50 ERα).
`O=S(=O)(c1cccc(-c2ccccc2)c1)N1CCc2ccc(OCc3c(F)cccc3Cl)cc21` — result for “maximum fold change”: 7.8 ± 2.1 (RORC (Homo sapiens, UniProt P51449); reporter gene, agonist, GAL4 luciferase reporter; together with: ursolic acid 2 µM; baseline: DMSO).
`NC(=O)c1cnccn1` has an inhibition of 1% (Genome polyprotein NS3 helicase domain; DNA binding, inhibitor; hepatitis C virus; 100 µM, together with: Cy5-dT15 DNA).
The reaction rate of `Nc1nc2c(ncn2[C@@H]2O[C@H](COP(=O)(O)O)[C@@H](O)[C@H]2O)c(=O)[nH]1` is reported as 0.0552 s⁻¹ and 0.359 s⁻¹ and 0.471 s⁻¹ (GUK1 (Homo sapiens, UniProt Q16774, R148A); enzyme activity, NADH-coupled; 250 µM).
`Cc1ccc(S(=O)(=O)/C=C/C#N)cc1` gave an inhibition of 0% (Genome polyprotein NS3 helicase domain; DNA binding, inhibitor; hepatitis C virus; 100 µM, together with: Cy5-dT15 DNA).
`CCn1c(=O)[nH]c2cc(C(=O)NC(c3ccc(F)cc3)c3cnn(C)c3)ccc2c1=O` (centres unmarked) gave an SPR response of 1.5 RU (WD repeat-containing protein 91; binding, SPR steady state; 0.1172 µM).
`COc1cc(/C=C/C(=O)C(=Cc2ccccc2)C(=O)/C=C/c2ccc(O)c(OC)c2)ccc1O` has a ΔH of -99.45 ± 0.55 kJ/mol (haemin; binding, isothermal titration calorimetry; pH 7.4, 37 °C).
`[O-][S+]1CCCCS1` (centres unmarked): “SOD1 dimer fraction” 91.7% (SOD1 (Homo sapiens, UniProt P00441, G94A); LC-MS; human whole blood; 5000 µM, 1 h, 37 °C).
With `CCCN1C[C@H](CSC)C[C@@H]2c3cccc4[nH]cc(c34)C[C@H]21` the activation was 3% (Glutamate receptor 2 (Homo sapiens, UniProt P42262); ion current, agonist, SyncroPatch patch clamp; HEK293; 10 µM).
`NCCC[C@H](N)C(=O)O` has a product formation of 1.23 µM (NAA80; substrate, DTNB; 2 mM, 30 min, 37 °C, together with: acetyl-CoA 500 µM).
`CC[C@H](C)[C@H](NC(=O)[C@H](CCC(=O)O)NC(=O)[C@H](CCC(=O)O)NC(=O)[C@@H]1CCCN1C(=O)[C@H](CC(=O)O)NC(=O)[C@H](C)NC(=O)[C@H](CCC(N)=O)NC(=O)[C@@H](NC(=O)[C@H](C)NC(=O)[C@@H](NC(=O)[C@H](CO)NC(=O)[C@@H](NC(=O)[C@H](CCCCN)NC(=O)[C@@H](N)Cc1ccc(O)cc1)[C@@H](C)O)C(C)C)[C@@H](C)O)C(=O)N[C@H](C(=O)N[C@H](C(=O)N[C@@H](CC(C)C)C(=O)N[C@@H](CC(=O)O)C(=O)N[C@@H](CC(=O)O)C(=O)N[C@@H](CC(=O)O)C(=O)N[C@@H](CC(=O)O)C(=O)O)C(C)C)[C@@H](C)CC` has a ΔH of 6.19 ± 0.377 kJ/mol (Small ubiquitin-related modifier 2, N-terminally truncated (Homo sapiens, UniProt P61956, C48A); binding, ITC; Tris buffer; pH 7.4, ΔN-SUMO2).
`O=c1cc(-c2ccc(O)cc2)oc2c([C@@H]3O[C@H](CO)[C@@H](O)[C@H](O)[C@H]3O)c(O)cc(O)c12` has a selectivity ratio of 8.48 (ESR1; array formation; PRL-HeLa; baseline: EC50 ERβ over EC50 ERα).
Under “mean decatenated DNA”, `O=c1nc(SCc2cc(F)cc(C(F)(F)F)c2)nc(SCc2ccc3nc(OCCN4CCOCC4)ccc3c2)[nH]1` is recorded as 92.4% (TOP2A (Homo sapiens, UniProt P11388); decatenation; 7.8 µM).
`CC(C)C[C@H](N)C(=O)O` gave a product formation of 2.23 µM (NAA80; substrate, DTNB; 2 mM, 30 min, 37 °C, together with: acetyl-CoA 500 µM).
`O=C(COP(=O)(O)O)[C@@H](O)[C@H](O)[C@H](O)COP(=O)(O)O`: “thermal stability ratio” 1 and 11.6 and 0.607 (Erlin-1 (Homo sapiens, UniProt O75477); thermal proteome profiling; HepG2 cell lysate; concentration not given, 57 over 37 °C; baseline: compound over control).
`Oc1ccc(/C=C/c2cc(O)cc(O)c2)cc1`: “ΔG of binding” -35.2 kJ/mol (O-methyltransferase (Sorghum bicolor, UniProt A0A1B6PFV1); concentration not given, together with: ADN+).
`O=C1CC[C@H](N2Cc3cc(N4CCN(CC5CCN(c6ccc([C@@H]7c8ccc(O)cc8CC[C@@H]7c7ccccc7)cc6)CC5)CC4)ccc3C2=O)C(=O)N1` gave a Dmax of 95% (ESR1; degrader, in-cell western; MCF7; 72 h).
The apparent kcat of `O=O` is reported as 0.7 ± 0.05 s⁻¹ (HIF1AN (Homo sapiens, UniProt Q9NWT6, E105A); enzyme activity, substrate, rates, initial, MALDI-TOF MS; varied, pH 7.00, 37.0 °C, E105A, together with: CTAD peptide 80 µM, 2-oxoglutarate 100 µM).
For `N#CC1CCN(C(=O)c2ccc(Cn3cc(-c4ccc5ncccc5c4)nn3)cc2)CC1`, the binding was 5% and 6% (WD repeat-containing protein 91 WD40 domain, residues 392–747; SPR; 45 µM).
`CC[C@H](C)[C@H](NC(=O)[C@H](CCCCN)NC(=O)CNC(=O)[C@@H](NC(=O)[C@@H](NC(=O)[C@H](CCSC)NC(=O)[C@H](Cc1c[nH]cn1)NC(=O)CN)[C@@H](C)O)C(C)C)C(=O)N[C@@H](Cc1ccc(O)cc1)C(=O)N[C@@H](C)C(=O)N[C@@H](C)C(=O)N[C@@H](CCSC)C(=O)N[C@@H](CCSC)C(=O)N[C@H](C(=O)N[C@@H](CCSC)C(=O)N[C@@H](CCC(=O)O)C(=O)N[C@@H](C)C(=O)N[C@@H](Cc1ccc(O)cc1)C(=O)N[C@@H](CCCNC(=N)N)C(=O)N[C@@H](CCC(N)=O)C(=O)N[C@@H](CO)C(=O)N[C@@H](CCCCN)C(=O)N[C@@H](C)C(=O)N[C@@H](CCCCN)C(=O)N[C@@H](CCCCN)C(=O)N[C@@H](CC(C)C)C(=O)N[C@@H](CCC(N)=O)C(=O)N[C@@H](C)C(=O)N[C@@H](CCSC)C(=O)N[C@@H](CCCNC(=N)N)C(=O)O)[C@@H](C)CC` gave a ΔH of -3.97 ± 0.167 kJ/mol (Calmodulin-1, Ca2+-bound C-lobe (CALM1, Homo sapiens, UniProt P0DP23); binding, isothermal titration calorimetry; pH 7.4, 15 °C, C-lobe, CaV2.1 IQ domain, together with: Ca2+).
`Cn1cc(-n2cnc3c(NCc4nc5cc(Cl)c(Cl)cc5[nH]4)nc(N4CCOCC4)nc32)cn1` has an inhibition of 14.8% (Cyclin-dependent kinase 12, with cyclin K (CDK12, Homo sapiens, UniProt Q9NYV4); kinase activity, inhibitor, ADP-Glo; 0.0082 µM).
`Cc1cc(C(C)(C)C)cc(C)c1CC1=NCCN1` has an inhibition of 1% (Genome polyprotein NS3 helicase domain; DNA binding, inhibitor; hepatitis C virus; 100 µM, together with: Cy5-dT15 DNA).
For `N#CC1CCN(C(=O)c2ccc(OC3CCC3)cc2)CC1`, the SPR response was -1.8 RU and -9.2 RU (WD repeat-containing protein 91 WD40 domain, residues 392–747; binding, SPR single-concentration screen; 45 µM).
The antagonist response of `C[C@]12CC[C@@H]3c4ccc(O)cc4C[C@@H](CCCCCCCCC[S+]([O-])CCCC(F)(F)C(F)(F)F)[C@H]3[C@@H]1CC[C@@H]2O` (some centres unmarked) is reported as 43.7% (ESR1; antagonist, CALUX reporter; U2OS; 3e-07 µg/mL).
For `CCCCCCSc1nnc2c(n1)OC(c1ccc(C(=O)O)cc1)Nc1ccccc1-2` (centres unmarked), the EC50 was 279 µM (Voltage-gated potassium channel, KQT; KCNQ2(Kv7.2)/KCNQ3(Kv7.3) (KCNQ3/KCNQ2, Homo sapiens, UniProt O43525+O43526); G(V) shift, activator, two-electrode voltage clamp; Xenopus oocytes; pH 7.4, up to 100 µM, at -17.2 mV).
With `Nc1ncnc2c1ncn2[C@@H]1O[C@H](COP(=O)(O)CP(=O)(O)OP(=O)(O)O)[C@@H](O)[C@H]1O` the specific binding was 78.5 CCPM and 82 CCPM and 62 CCPM (P2X purinoceptor 1 (P2RX1, Homo sapiens, UniProt P51575, D170A); saturation binding; HEK293; 13 nM).
`NCc1ccccc1` has an enzyme activity of 4.59 and 5.03 and 4.89 and 5.08 and 4.98 and 4.51 and 5.14 and 4.6 (AOC1 (Homo sapiens, UniProt P19801); substrate turnover, DAO oxidation; concentration not given, unit not given; baseline: DMSO control).
The binding of `N#Cc1cccc(OCc2cn(-c3ccc(C(=O)N4CCC(C#N)CC4)cc3)nn2)c1` is reported as 22% and 35% (WD repeat-containing protein 91 WD40 domain, residues 392–747; SPR; 45 µM).
With `N#CC(C#N)=C(N)/C(C#N)=C/c1cc(O)c(O)c(O)c1` the inhibition was 19% (Genome polyprotein NS3 helicase domain; DNA binding, inhibitor; hepatitis C virus; 100 µM, together with: Cy5-dT15 DNA).
Under “log cooperativity factor beta”, `O=C1NCCc2nc(OCc3cccc(F)c3)ccc21` is recorded as 0.234 ± 0.039 (Grm5 (Rattus norvegicus, UniProt P31424); calcium flux, positive allosteric modulator; together with: glutamate).
The inhibition of `CCCn1c(=O)c2[nH]c(C3CCCC3)nc2n(CCC)c1=O` is reported as 0% (Genome polyprotein NS3 helicase domain; DNA binding, inhibitor; hepatitis C virus; 100 µM, together with: Cy5-dT15 DNA).
With `O=C(NC1CCCS(=O)(=O)c2ccccc21)c1ccc2nc(O)cnc2c1` (centres unmarked) the SPR response was 37 RU (WD repeat-containing protein 91; binding, SPR steady state; 15 µM).
`COc1ccc(/C=C/C(=O)Nc2ccccc2C(=O)O)cc1OC` has an inhibition of 1% (Genome polyprotein NS3 helicase domain; DNA binding, inhibitor; hepatitis C virus; 100 µM, together with: Cy5-dT15 DNA).
`O=C(O)c1cc(O)c(O)c(O)c1` has a delta Tm of 2.2 °C (Uncharacterized protein (Chromohalobacter israelensis, UniProt Q1QT90); binder, thermal shift).
